Measured values from different studies.
Parts stem from different laboratories: compare values within a part only. Changes are numbered by the printed parent chain.

Series 1 — method: DHFR PCA, deep sequencing; medium: yeast; added: (+)-ABA 0.032 µM; baseline: wild-type fitted maximum; reading: higher = stronger binding; measurement: relative binding score
Target: ABI1, truncated, D143A, DHFR fusion (Arabidopsis thaliana)
Setting: methotrexate growth selection, single substitutions
Starting sequence: PYL1, truncated, DHFR fusion (Arabidopsis thaliana); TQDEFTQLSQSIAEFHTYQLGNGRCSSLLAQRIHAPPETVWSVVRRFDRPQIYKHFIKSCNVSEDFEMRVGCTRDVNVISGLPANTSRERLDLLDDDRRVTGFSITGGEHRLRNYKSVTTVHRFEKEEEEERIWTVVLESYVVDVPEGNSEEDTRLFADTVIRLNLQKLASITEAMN
L112W: 4.02%
T6V: 37.3%
S171D: 30.3%
A175Y: -2.79%
V145G: -3.52%
V70R: 1.54%
H34P: 0.658%
C25R: -3.51%
G107T: 2.96%
R163T: 14%
L82A: 1.25%
A170V: -2.06%
R32N: -8.63%
I57W: 1.28%
A158C: 66.8%

Series 2 — target: CCNB2, cyclin fold, Cln2 fusion (human); method: yeast growth competition, sequencing; medium: yeast; setting: weak parent motif; baseline: not given; reading: higher = stronger binding; measurement: normalised enrichment score
Starting sequence: FZR1 docking peptide (human); QDYERRLLRQIVI; partner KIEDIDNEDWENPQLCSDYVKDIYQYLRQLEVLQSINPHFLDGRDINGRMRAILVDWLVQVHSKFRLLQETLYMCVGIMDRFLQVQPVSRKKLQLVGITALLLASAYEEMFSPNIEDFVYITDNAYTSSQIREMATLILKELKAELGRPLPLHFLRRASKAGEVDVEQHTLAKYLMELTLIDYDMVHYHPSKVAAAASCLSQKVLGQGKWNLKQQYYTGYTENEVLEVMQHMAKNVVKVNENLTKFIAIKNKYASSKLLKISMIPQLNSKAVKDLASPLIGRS
QDYEARLLRQIVI [R5A]: 0.265
ADYERRLLRQIVI [Q1A]: 0.764
QDAERRLLRQIVI [Y3A]: 0.436
QDYERRLARQIVI [L8A]: 0.367
QDYEKRLLRQIVI [R5K]: 0.441
QDYERRLLRQIAI [V12A]: 0.413
QDYERRALRQIVI [L7A]: 0.377

Series 3 — method: RNA Bind-n-Seq; molecule type: RNA; medium: in vitro; tested at: 100 nM; baseline: input RNA pool; reading: higher = stronger binding; measurement: bound/input enrichment
Target: RING finger protein unkempt homolog, zinc fingers 1-6, SBP tag (UNK, Homo sapiens, UniProt Q9C0B0, residues 30-357)
Chain of UniProt Q9C0B0 (30-357, looked up): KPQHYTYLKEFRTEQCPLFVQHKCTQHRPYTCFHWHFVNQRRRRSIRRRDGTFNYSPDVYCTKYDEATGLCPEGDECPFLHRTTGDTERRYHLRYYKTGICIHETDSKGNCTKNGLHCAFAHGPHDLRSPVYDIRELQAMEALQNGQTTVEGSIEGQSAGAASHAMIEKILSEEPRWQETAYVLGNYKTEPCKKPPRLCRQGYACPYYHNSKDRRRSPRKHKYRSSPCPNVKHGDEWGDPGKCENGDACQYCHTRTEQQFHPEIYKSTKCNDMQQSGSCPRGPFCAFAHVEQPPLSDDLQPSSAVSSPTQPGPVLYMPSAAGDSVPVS
Setting: RNA with constant flanks, vertebrate orthologous sites, ends assumed
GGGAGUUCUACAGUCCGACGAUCAGCAACCCAAGGAUUCAGGACUGGUCUUAUAAAUAUACCAAGUAAAUAUGGAACUAACAAUAGAAUUGGACAACCAAGACCUUAAUGCACUCUAUUUUAAUUUAUUUUUGUGAGGAAUUUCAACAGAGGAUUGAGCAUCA: 0.445 ratio
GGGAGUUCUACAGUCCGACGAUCUGUAUGUAGAGAAAAUUUUUCAUUGACCCCCCCCAUUGUGAAACUCCAUAGCAGUUUAUUUAGAAUCUUAAUUUUUCUAAUACAAGCUCACUGUAUUAGUCAUUUUAGCCCAUAAUUAAACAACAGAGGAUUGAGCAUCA: 3.18 ratio
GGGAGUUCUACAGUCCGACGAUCCCCUCUGAACCCCAUAUCUUCUGUGUCAUAGUGCAGAAGUGUUCUUUUCAAUUACGUUAUUAGUGGACUUGUUUUAAUUUUAGGGAAACUUUCAGUACAGAUACUGUGAGCAUAUUUGGACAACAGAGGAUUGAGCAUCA: 2.7 ratio
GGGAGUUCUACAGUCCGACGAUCCCCCGAUUUUAGAUGUGAUAUCUAGGCUUUCAUUCCAGUUUGUUUUUGUCUUUUCUUGUUUAGAUAGCAAUCUUUUAAAUUCUUGCAUUUUAGUAAGAAAGCUACCUUUUUAUGGAUGUUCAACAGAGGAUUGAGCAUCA: 0.73 ratio
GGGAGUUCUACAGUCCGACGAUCAGAGCUCACAAACUGAAAGGAAAACUAUUAAAGAGUUUCUAAUAUUAACUAUUAGAAAGCUAGGAAGAUUAGGACAAUUUUACAAAUGAGCAAUUGAAAAGGAUCUGGGAACUAGACUGACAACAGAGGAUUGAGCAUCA: 0.416 ratio
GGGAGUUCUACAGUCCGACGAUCAUAUUGUAUGUAGAGAAAAAUUUUCAUUGACCCUAUUGUGAAAUUCCCUAGCAAUUUAUUUAGAAUCUUAAUUUUUCUAAUUCAAGCUCACUGUAUUAGUCAUUUUUAGCCCAUAAUUAACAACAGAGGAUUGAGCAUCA: 3.59 ratio

Series 4 — method: protein binding microarray; molecule type: double-stranded DNA, one strand shown; medium: in vitro; tested at: not given; baseline: not given; reading: higher = stronger binding; measurement: E-score
Target: Histone acetyltransferase KAT6A, both winged helices, GST fusion (KAT6A, Homo sapiens, UniProt Q92794, residues 1-181)
Setting: 8-mer, flanks averaged, mean of 2 arrays, mostly near background
Construct (chain): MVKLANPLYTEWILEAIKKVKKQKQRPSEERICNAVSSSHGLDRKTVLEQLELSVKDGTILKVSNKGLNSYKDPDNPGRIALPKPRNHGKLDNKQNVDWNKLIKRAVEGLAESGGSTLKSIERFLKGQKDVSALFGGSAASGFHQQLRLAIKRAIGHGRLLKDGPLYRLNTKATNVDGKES
CGGCTTAA: 0.328
AACCCTGT: -0.0969
CAGGTGCC: 0.0134
GAACGTAA: 0.00156
CCCTCACC: -0.0986
GGAACCAA: 0.0523
GACACGGA: 0.201
AGCCGTTA: 0.248
CTAAGCGA: 0.0229
AGAGATGC: -0.0852
ATCCGCCC: 0.153
CAGCAATA: -0.158
AAAGGTCG: -0.11
CTCAGCGC: 0.288
AGAGTCCC: -0.0434
AGAGAACC: -0.175
CCAGTTAC: -0.197
CTTCGATA: 0.111
GGGGTTTA: -0.0205
ATCCAGCG: 0.181

Further values, each from its own experiment
PhoQ, residues 284 288 289 292 302 303 ASSHFY — fold induction (PhoP, residues 12 14 15 18 19 LHHVQ (Escherichia coli, UniProt P23836); Sort-seq, measured: YFP reporter; E. coli; PhoQ-PhoP variant library, added: 10 µM Mg2+; baseline: high Mg2+ state, higher = stronger signaling): 14.1

A few entries again (series 4):
AGAGAACC: -0.175
CTTCGATA: 0.111
AACCCTGT: -0.0969
AAAGGTCG: -0.11
ATCCAGCG: 0.181
CCCTCACC: -0.0986
CAGCAATA: -0.158
